Published values pooled from the literature.
Each line is one published result; not all experiments were run side by side. ± gives the spread as reported.
Cell line: HepG2

Structure (SMILES)	assay	conditions	scale	endpoint	value
COc1ccc(-c2ccc(-c3ccc(C(=N)N)nc3)s2)cc1Cl	real-time PCR, refers to: topoisomerase II	0.1 µM, 8 h, unit not given	reference: untreated	mRNA level	0.57 ± 0.08
COc1ccc(CC/N=C(\N)CC(O)c2cc3ccccc3c3ccccc23)cc1 (stereo not drawn)	cell growth or viability			CC50	9 µM
COc1cc2c(cc1OCc1cccc(F)c1)CCN1Cc3c(c4ccccc4n3CO)CC21 (stereo not drawn)	Western blot, refers to: PCSK9	5 µM, 24 h, unit not given	reference: vehicle	protein level	0.82 ± 0.09
CC12NC(=O)NC(c3c(ccc4ccccc34)O1)C2C(=O)Nc1cccnc1 (stereo not drawn)	cell growth or viability, MTT	10 µM		inhibition	63.5%
COc1cc(C2Oc3cc([C@H]4Oc5cc(O)cc(O)c5C(=O)[C@@H]4O)ccc3OC2CO)ccc1O (stereo partly drawn)	Seahorse respirometry	concentration not given, 1 h, dosed at MMP IC50, added: 1 µM FCCP	reference: basal	OCR	48.4 ± 1.58%
CC(=O)c1s/c(=N/N=C(\C)c2ccccn2)[nH]c1C	cell growth or viability, SRB	100 µg/mL, 48 h		inhibition	65.2%
Cc1[nH]c(=O)nc2c1c(=O)oc1ccc3ccccc3c12	cell growth or viability, MTT	10 µM		inhibition	36.5%
CCn1c(C)c(/N=N/c2ccc(Cl)cc2)s/c1=N/N=C(\C)c1ccccn1	cell growth or viability, SRB	100 µg/mL, 48 h		inhibition	68.8%
Cc1cc(O)c2c(c1)C(=O)c1cc(O)cc(O)c1C2=O	Seahorse respirometry	concentration not given, 1 h, dosed at MMP IC50, added: 1 µM FCCP	reference: basal	OCR	248 ± 2.96%
CNC(=O)c1cc(O[C@H]2CC[C@H](NC(=O)Nc3ccc(Cl)c(C(F)(F)F)c3)CC2)ccn1	cell growth or viability, MTT	72 h		EC50	7 µM
CCN1C(=O)/C(=C\c2ccc(Cl)cc2)S/C1=N/N=C(\C)c1ccccn1	cell growth or viability, SRB	100 µg/mL, 48 h		inhibition	60.2%
Cc1[nH]c(=S)nc2c1c(=O)oc1ccc3ccccc3c12	cell growth or viability, MTT	10 µM		inhibition	34.6%
CNC(=O)c1cc(Oc2ccc(NC(=O)Nc3ccc(Cl)c(C(F)(F)F)c3)cc2)ccn1	cell growth or viability, MTT	48 h		IC50	1.39 µM
COc1cc([C@@H]2c3cc4c(cc3[C@@H](O[C@@H]3O[C@@H]5CO[C@@H](c6cccs6)O[C@H]5[C@H](O)[C@H]3O)[C@H]3COC(=O)[C@H]23)OCO4)cc(OC)c1O	cell proliferation			EC50	7.7 µM
CC(=O)C1S/C(=N/N=C(\C)c2ccccn2)NC1=O (stereo not drawn)	cell growth or viability, SRB	100 µg/mL, 48 h		inhibition	68.6%
COc1ccc2c(c1)c1c(n2CO)CN2CCc3cc(OC)c(OCc4ccccc4F)cc3C2C1 (stereo not drawn)	Western blot, refers to: PCSK9	5 µM, 24 h, unit not given	reference: vehicle	protein level	1.02 ± 0.15
CCN1C(=O)/C(=C\c2ccc(F)cc2)S/C1=N/N=C(\C)c1ccccn1	cell growth or viability, SRB	100 µg/mL, 48 h		inhibition	66.9%
NC(N)=NC(=O)c1nc(Cl)c(N2CCCCCC2)nc1N	phospholipidosis induction, inducer, high-content imaging	24 h, primary screen		EC50	13 µM
COc1cc2c(cc1OCc1ccc(C)cc1)CCN1Cc3c(c4ccccc4n3CO)CC21 (stereo not drawn)	Western blot, refers to: PCSK9	5 µM, 24 h, unit not given	reference: vehicle	protein level	0.69
COC(=O)C[C@H](NC(=O)[C@H](C)NC(=O)[C@@H](NC(=O)OCc1ccccc1)C(C)C)C(=O)CF	apoptosis and caspase activation, annexin V-FITC/PI	10 µM, 2 h pretreatment, added: 2.5 µM other inducer for 24 h		apoptosis inhibition	inhibited
CN(CCOc1ccc(CC2SC(=O)NC2=O)cc1)c1ccccn1 (stereo not drawn)	Bayesian modelling, refers to: mitochondrial stress biomarkers			point of departure	10 to 100 µM

Structure (SMILES)	assay	conditions	scale	endpoint	value
COc1cc(-c2ccc(-c3ccc(C(=N)N)nc3)s2)cc(OC)c1OC	real-time PCR, refers to: CDK1	0.1 µM, 8 h, unit not given	reference: untreated	mRNA level	0.3 ± 0.04
CSc1ccc2c(c1)C(N1CCN(C)CC1)Cc1ccccc1S2 (stereo not drawn)	phospholipidosis induction, inducer, high-content imaging	24 h, confirmation screen		EC50	6.1 ± 0.4 µM
Cc1ccc(NC(=O)CN2CCN(c3nc4ccccc4[nH]c3=O)CC2)cc1	cell growth or viability, MTT	24 h		IC50	7.82 µM
COc1ccc2c(c1)c1c(n2CO)CN2CCc3cc(OCc4ccc(C)cc4)c(OC)cc3C2C1 (stereo not drawn)	Western blot, refers to: PCSK9	5 µM, 24 h, unit not given	reference: vehicle	protein level	0.95 ± 0.08
COc1ccc(-c2ccc(-c3ccc(C(=N)N)nc3)s2)cc1	real-time PCR, refers to: TXNRD1	0.1 µM, 8 h, unit not given	reference: untreated	mRNA level	1.32 ± 0.14
COc1ccc(/C=C2/S/C(=N/N=C(\C)c3ccccn3)NC2=O)cc1	cell growth or viability, SRB	100 µg/mL, 48 h		inhibition	66.9%
CN1CCN(c2nc3cc(C(F)(F)F)ccc3n3cccc23)CC1	phospholipidosis induction, inducer, high-content imaging	24 h, primary screen		EC50	8 µM
CC12NC(=O)NC(c3c(ccc4ccccc34)O1)C2C(=O)Nc1ccccc1 (stereo not drawn)	cell growth or viability, MTT	10 µM		inhibition	16.5%
CCCCN(CCCC)CC(O)c1cc(Cl)cc2c1-c1ccc(Cl)cc1/C2=C/c1ccc(Cl)cc1 (stereo not drawn)	cell growth or viability			CC50	> 20 µM
COc1cccc2c1C(=O)c1c(O)c3c(c(O)c1C2=O)C[C@@](O)(C(=O)CO)C[C@@H]3O[C@H]1C[C@H](N)[C@H](O)[C@H](C)O1	real-time PCR, refers to: CDK1	0.1 µM, 8 h, unit not given	reference: untreated	mRNA level	0.31 ± 0.09
COc1cc2nc(N3CCN(C(=O)OCc4ccccc4)[C@H](C(=O)NC(C)(C)C)C3)nc(N)c2cc1OC	phospholipidosis induction, inducer, high-content imaging	24 h, primary screen		EC50	4 µM
CCCCCCCC[N+](CCCCCCCC)(CCCCCCCC)CCCCCCCC.[Br-]		MMP IC50, 1 h, added: FCCP 1 µM	reference: basal OCR	maximal OCR	224.1 ± 1.98%
CCn1c(C)cs/c1=N/N=C(\C)c1ccccn1	cell growth or viability, SRB	100 µg/mL, 48 h		inhibition	62.7%
COc1cc2c(cc1OCc1ccc(F)cc1)CCN1Cc3c(c4ccccc4n3CO)CC21 (stereo not drawn)	Western blot, refers to: PCSK9	5 µM, 24 h, unit not given	reference: vehicle	protein level	0.81 ± 0.07
CC1=C(C(=O)Nc2cccnc2)C(c2ccc3ccc4cccc5ccc2c3c45)NC(=S)N1 (stereo not drawn)	cell growth or viability, MTT	10 µM		inhibition	29.8%
COc1cc2c(cc1OCc1cccc(C)c1)CCN1Cc3c(c4ccccc4n3CO)CC21 (stereo not drawn)	Western blot, refers to: PCSK9	5 µM, 24 h, unit not given	reference: vehicle	protein level	0.93
OCCN1CCN(CC/C=C2/c3ccccc3Sc3ccc(C(F)(F)F)cc32)CC1	phospholipidosis induction, inducer, high-content imaging	24 h, confirmation screen		EC50	7.6 ± 4.4 µM
COc1ccc2c(c1)c1c(n2CO)CN2CCc3cc(OCc4cccc(C)c4)c(OC)cc3C2C1 (stereo not drawn)	Western blot, refers to: PCSK9	5 µM, 24 h, unit not given	reference: vehicle	protein level	0.94 ± 0.03
C/C(=N\N=c1/[nH]c(C)c(/N=N/c2ccc(C)cc2)s1)c1ccccn1	cell growth, SRB	100 µg/mL, 48 h		inhibition	> 75%
COc1ccc2cc3[n+](cc2c1OC)CCc1cc2c(cc1-3)OCO2		5 µM, 24 h, unit not given	reference: vehicle	DiI-LDL uptake	1.38
CC(C)(C)[C@]1(O)CCN2C[C@H]3c4ccccc4CCc4cccc(c43)[C@@H]2C1	phospholipidosis induction, LipidTOX high-content imaging	24 h, confirmation screen		EC50	4.9 ± 1.2 µM

A few entries again:
Structure (SMILES)	assay	conditions	scale	endpoint	value
CNC(=O)c1cc(Oc2ccc(NC(=O)Nc3ccc(Cl)c(C(F)(F)F)c3)cc2)ccn1	cell growth or viability, MTT	48 h		IC50	1.39 µM
COc1ccc(/C=C2/S/C(=N/N=C(\C)c3ccccn3)NC2=O)cc1	cell growth or viability, SRB	100 µg/mL, 48 h		inhibition	66.9%
CCN1C(=O)/C(=C\c2ccc(F)cc2)S/C1=N/N=C(\C)c1ccccn1	cell growth or viability, SRB	100 µg/mL, 48 h		inhibition	66.9%
COc1cc2c(cc1OCc1ccc(F)cc1)CCN1Cc3c(c4ccccc4n3CO)CC21 (stereo not drawn)	Western blot, refers to: PCSK9	5 µM, 24 h, unit not given	reference: vehicle	protein level	0.81 ± 0.07
COc1ccc(CC/N=C(\N)CC(O)c2cc3ccccc3c3ccccc23)cc1 (stereo not drawn)	cell growth or viability			CC50	9 µM
CC(C)(C)[C@]1(O)CCN2C[C@H]3c4ccccc4CCc4cccc(c43)[C@@H]2C1	phospholipidosis induction, LipidTOX high-content imaging	24 h, confirmation screen		EC50	4.9 ± 1.2 µM
COc1cc2nc(N3CCN(C(=O)OCc4ccccc4)[C@H](C(=O)NC(C)(C)C)C3)nc(N)c2cc1OC	phospholipidosis induction, inducer, high-content imaging	24 h, primary screen		EC50	4 µM
